# Values quoted from earlier work, collected from citations in different studies.
# Compare with care: the assays were run in different laboratories. Values joined by “and” are separate records of one study, mostly repeats; a detail may differ. ± gives the spread as reported.
# Organism: Plasmodium falciparum
Compound,test,test system,conditions,how to read,quantity,value
CCN(CCNc1ccnc2cc(Cl)ccc12)CCNS(=O)(=O)c1cccc2c(N(C)C)cccc12,parasite growth,"HB3, chloroquine-sensitive",,,IC50,17.5 nM
CC(=O)N(O)CCCP(=O)(O)O,,fresh clinical Cameroonian isolates,,,IC50,118 nM
Cn1cc2c3c1C(=O)c1[nH]cc(-c4ccc(O)cc4)c1C3=[N+](C)CC2,parasite growth,"Dd2, multidrug-resistant",,,IC50,< 50 nM
COc1cc2[nH]c(C)c(-c3ccc(Oc4ccc(OC(F)(F)F)cc4)cc3)c(=O)c2cc1Cl,parasite growth,,,,EC50,~4 nM
Cc1cc(Cl)ccc1[C@H]1N[C@H](C(=O)O)Cc2c1[nH]c1ccccc21,parasite growth,Dd2,,,IC50,700 ± 90 nM
CCCc1cc2c(o1)C(=O)c1ccccc1C2=O,parasite growth,W2 chloroquine-resistant,,,IC50,11600 nM and 11000 nM
Cc1ccc([C@H]2N[C@H](C(=O)O)Cc3c2[nH]c2ccccc32)c(Cl)c1,parasite growth,Dd2,,,IC50,410 ± 40 nM
Cc1c(-c2ccc(Cc3ccc(OC(F)(F)F)cc3)cc2)[nH]c2cccc(F)c2c1=O,parasite growth,,,,EC50,~16 nM
COc1ccc([C@H]2N[C@H](C(=O)O)Cc3c2[nH]c2ccccc32)c(OC)c1,parasite growth,Dd2,,,IC50,> 20000 nM
Cc1c(-c2ccc(Cc3ccc(OC(F)(F)F)cc3)cc2)[nH]c2cccc(F)c2c1=O,,cyt b F264L,,relative to: wild type,EC50 fold change,3 to 4 fold
O=C(O)[C@@H]1Cc2c([nH]c3ccccc23)[C@@H](c2ccccc2)N1,parasite growth,Dd2,,,IC50,> 10000 nM
Cc1[nH]c2ccccc2c1C1CCN(CC2CCC(NC(=O)/C=C/c3ccc(Cl)c(Cl)c3)CC2)CC1 (stereo not drawn),parasite development,Dd2,2 µM,,inhibition,> 90%

# For quick reference, copied from above:
Compound,test,test system,conditions,how to read,quantity,value
COc1ccc([C@H]2N[C@H](C(=O)O)Cc3c2[nH]c2ccccc32)c(OC)c1,parasite growth,Dd2,,,IC50,> 20000 nM
Cc1c(-c2ccc(Cc3ccc(OC(F)(F)F)cc3)cc2)[nH]c2cccc(F)c2c1=O,,cyt b F264L,,relative to: wild type,EC50 fold change,3 to 4 fold
